Published values from different studies.
Each line is one published result; not all experiments were run side by side. “And” joins repeats or separate records; there may be more than shown. ± marks the error that the study gave.
CYP3A4: Cytochrome P450 3A4 (CYP3A4, Homo sapiens, UniProt P08684)
UniProt P08684, sequence (whole entry, looked up): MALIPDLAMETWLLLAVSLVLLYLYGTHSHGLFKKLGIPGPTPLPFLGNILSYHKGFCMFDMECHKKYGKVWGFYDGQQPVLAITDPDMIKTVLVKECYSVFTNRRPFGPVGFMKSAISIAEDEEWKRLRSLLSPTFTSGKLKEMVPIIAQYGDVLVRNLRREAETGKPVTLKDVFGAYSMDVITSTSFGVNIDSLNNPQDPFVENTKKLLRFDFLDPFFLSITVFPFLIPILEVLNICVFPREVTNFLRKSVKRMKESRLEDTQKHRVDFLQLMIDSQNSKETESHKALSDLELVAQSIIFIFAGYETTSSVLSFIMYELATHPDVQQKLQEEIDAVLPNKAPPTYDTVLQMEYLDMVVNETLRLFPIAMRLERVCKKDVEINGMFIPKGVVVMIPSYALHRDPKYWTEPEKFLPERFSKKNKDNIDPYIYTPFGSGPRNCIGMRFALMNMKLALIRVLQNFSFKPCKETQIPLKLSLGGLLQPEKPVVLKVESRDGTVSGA
CACNA1C: Voltage-dependent L-type calcium channel subunit alpha-1C (CACNA1C, Homo sapiens, UniProt Q13936)
UniProt Q13936, sequence (whole entry, looked up): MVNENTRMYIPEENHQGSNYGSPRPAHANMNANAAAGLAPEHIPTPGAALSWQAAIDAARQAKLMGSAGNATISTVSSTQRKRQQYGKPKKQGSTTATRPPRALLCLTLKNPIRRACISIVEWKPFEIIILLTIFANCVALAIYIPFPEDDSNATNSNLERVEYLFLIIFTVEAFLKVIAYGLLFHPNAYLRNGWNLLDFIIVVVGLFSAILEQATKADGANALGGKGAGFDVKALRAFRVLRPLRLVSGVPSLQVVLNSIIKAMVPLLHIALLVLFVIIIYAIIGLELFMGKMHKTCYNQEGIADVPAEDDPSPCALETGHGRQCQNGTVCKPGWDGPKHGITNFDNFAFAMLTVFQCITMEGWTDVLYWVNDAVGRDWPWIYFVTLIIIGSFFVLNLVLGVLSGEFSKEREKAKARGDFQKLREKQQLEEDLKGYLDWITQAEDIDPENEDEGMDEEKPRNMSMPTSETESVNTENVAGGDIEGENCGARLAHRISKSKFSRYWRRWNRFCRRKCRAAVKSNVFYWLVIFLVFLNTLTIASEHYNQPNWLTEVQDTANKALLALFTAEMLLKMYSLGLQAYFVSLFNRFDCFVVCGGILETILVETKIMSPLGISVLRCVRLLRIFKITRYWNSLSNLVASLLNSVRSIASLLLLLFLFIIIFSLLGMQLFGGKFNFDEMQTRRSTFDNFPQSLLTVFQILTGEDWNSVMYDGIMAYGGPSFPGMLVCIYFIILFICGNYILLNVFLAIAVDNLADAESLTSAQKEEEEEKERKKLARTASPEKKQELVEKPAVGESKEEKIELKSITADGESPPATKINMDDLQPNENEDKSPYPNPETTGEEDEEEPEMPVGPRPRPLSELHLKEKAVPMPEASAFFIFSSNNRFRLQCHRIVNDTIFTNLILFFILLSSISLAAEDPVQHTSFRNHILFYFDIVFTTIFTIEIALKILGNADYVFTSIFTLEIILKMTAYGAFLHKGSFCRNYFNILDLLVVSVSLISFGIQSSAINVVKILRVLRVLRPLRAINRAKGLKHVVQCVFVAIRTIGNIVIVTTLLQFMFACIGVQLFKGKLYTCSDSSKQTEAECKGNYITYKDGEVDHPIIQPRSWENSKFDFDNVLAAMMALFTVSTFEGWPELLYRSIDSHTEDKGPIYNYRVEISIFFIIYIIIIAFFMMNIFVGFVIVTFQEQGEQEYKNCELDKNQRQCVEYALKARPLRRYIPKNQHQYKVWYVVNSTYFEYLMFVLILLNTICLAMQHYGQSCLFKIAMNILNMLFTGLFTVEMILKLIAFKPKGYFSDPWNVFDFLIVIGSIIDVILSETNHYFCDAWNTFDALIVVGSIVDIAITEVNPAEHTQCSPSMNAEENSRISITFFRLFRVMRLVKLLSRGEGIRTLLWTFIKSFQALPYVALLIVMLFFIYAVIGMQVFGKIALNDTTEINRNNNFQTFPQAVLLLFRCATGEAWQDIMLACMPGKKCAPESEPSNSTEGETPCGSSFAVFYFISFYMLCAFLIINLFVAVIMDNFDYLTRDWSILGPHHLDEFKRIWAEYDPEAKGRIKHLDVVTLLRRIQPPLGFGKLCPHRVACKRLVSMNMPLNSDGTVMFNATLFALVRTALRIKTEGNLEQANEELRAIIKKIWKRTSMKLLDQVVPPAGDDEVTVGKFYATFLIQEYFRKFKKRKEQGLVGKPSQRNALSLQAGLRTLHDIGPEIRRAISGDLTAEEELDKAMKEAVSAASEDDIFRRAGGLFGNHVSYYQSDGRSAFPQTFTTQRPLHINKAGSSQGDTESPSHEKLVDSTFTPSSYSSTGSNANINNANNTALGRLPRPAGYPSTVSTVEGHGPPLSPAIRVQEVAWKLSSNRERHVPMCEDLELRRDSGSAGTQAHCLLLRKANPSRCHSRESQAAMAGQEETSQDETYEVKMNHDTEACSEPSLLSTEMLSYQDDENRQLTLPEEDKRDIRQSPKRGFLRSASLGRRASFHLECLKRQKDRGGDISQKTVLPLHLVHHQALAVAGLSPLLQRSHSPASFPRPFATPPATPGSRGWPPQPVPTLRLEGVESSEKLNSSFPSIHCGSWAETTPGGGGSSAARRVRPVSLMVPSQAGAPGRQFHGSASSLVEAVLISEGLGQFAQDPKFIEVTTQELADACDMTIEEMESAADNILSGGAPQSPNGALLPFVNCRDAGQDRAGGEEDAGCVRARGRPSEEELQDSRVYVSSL
UniProt P05178, sequence (whole entry, looked up): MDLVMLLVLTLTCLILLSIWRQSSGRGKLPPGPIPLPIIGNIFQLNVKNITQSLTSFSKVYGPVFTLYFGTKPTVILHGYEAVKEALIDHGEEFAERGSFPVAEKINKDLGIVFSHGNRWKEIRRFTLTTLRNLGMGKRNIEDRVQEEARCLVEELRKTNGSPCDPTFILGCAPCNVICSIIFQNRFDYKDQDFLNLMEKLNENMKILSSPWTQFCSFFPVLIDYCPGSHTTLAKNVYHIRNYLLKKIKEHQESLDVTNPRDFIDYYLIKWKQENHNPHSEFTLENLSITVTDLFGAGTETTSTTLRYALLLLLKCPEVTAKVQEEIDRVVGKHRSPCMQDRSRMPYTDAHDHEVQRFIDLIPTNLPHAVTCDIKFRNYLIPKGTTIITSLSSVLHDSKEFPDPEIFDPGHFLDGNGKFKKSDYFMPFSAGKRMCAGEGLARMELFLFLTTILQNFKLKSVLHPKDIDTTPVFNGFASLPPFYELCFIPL
UniProt P14780, sequence (whole entry, looked up): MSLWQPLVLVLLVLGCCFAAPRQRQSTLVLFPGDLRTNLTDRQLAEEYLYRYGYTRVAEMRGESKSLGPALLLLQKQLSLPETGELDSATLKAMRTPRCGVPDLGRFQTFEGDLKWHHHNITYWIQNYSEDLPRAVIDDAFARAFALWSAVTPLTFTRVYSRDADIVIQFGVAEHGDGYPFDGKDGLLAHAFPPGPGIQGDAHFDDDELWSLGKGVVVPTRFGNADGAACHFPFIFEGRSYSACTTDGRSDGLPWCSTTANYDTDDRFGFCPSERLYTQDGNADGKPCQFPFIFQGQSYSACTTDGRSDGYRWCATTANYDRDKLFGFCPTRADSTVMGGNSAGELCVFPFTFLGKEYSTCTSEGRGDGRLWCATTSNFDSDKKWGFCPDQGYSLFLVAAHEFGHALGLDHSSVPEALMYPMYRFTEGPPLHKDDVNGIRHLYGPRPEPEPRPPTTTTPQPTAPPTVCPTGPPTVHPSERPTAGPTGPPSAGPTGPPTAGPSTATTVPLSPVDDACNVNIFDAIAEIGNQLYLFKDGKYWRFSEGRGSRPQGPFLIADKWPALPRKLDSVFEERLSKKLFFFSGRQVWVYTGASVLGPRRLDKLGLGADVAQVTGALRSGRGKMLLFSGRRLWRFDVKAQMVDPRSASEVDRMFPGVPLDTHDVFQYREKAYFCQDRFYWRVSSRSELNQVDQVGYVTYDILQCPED
UniProt O60502, sequence (whole entry, looked up): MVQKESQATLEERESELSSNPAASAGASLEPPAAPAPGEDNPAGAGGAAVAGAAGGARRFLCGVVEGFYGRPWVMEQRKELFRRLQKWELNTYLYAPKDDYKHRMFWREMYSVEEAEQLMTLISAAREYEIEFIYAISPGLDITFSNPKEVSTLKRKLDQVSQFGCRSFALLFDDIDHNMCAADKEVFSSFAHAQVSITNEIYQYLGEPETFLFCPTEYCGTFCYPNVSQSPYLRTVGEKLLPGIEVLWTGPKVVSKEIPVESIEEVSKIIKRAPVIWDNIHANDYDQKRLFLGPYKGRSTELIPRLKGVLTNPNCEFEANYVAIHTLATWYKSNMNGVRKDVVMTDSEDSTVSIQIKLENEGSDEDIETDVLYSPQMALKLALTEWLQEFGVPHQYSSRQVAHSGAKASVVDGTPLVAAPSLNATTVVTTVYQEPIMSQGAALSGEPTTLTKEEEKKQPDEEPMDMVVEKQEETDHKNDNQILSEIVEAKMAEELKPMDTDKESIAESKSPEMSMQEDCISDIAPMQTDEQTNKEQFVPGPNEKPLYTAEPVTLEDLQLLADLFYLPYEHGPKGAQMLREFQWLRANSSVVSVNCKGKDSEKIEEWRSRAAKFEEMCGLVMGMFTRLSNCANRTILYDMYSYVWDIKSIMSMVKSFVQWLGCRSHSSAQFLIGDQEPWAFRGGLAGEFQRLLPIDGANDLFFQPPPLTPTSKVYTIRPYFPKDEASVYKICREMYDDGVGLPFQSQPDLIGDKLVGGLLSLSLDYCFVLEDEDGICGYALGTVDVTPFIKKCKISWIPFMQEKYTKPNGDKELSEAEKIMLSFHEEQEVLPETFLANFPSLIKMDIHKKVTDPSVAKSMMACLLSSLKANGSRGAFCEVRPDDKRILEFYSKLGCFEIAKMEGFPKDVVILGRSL
UniProt P16257, sequence (whole entry, looked up): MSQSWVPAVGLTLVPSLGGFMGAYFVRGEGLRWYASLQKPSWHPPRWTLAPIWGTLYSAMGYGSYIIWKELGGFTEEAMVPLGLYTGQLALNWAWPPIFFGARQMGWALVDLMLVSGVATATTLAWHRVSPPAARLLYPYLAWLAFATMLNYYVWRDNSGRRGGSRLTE

Compound = COc1ccc2cc(NC(=O)c3cc(-c4cccnc4)nc4ccccc34)ccc2c1; target = CYP3A4; assay = substrate, refers to: metabolites M1 plus M2; test system = baculosomes; measurement = kcat/Km; value = 42700 M⁻¹ s⁻¹
Compound = CNC(=S)N/N=C/c1ccccn1; target = Zn2+ complex; assay = potentiometric titration; setting = 25 °C; measurement = log stability constant; value = 17.4
Compound = COc1cc(-c2nc3ccccc3s2)cc(CN2CCN(CC(=O)OC(C)(C)C)CCN(CC(=O)OC(C)(C)C)CC2)c1O; target = copper(II) ion; assay = metal chelation, spectrophotometric titration; test system = aqueous solution; setting = 50 µM, pH 6.6, added: Cu(II) 50 µM; how to read = higher = stronger binding; measurement = pCu; value = 10.5
Compound = NC(=S)N/N=C/c1ccccn1; target = Zn2+ complex; assay = potentiometric titration; setting = 25 °C; measurement = log stability constant; value = 17.8
Compound = CC(C)C[C@H](NC(=O)[C@@H]1CCCN1)C(=O)N[C@@H](CO)C(=O)N[C@@H](CC(C)C)C(=O)N[C@@H](CCCNC(=N)N)C(=O)N[C@@H](CO)C(=O)N[C@@H](CCCCN)C(=O)O; target = Matrix metalloproteinase-9 (MMP9, Homo sapiens, UniProt P14780); assay = substrate, HPLC; setting = 500 µM, 72 h, pH 7.5, 37 °C; measurement = remaining substrate; value = < 10%
Compound = CCc1cc(C)nc2c(CC(=O)N(CC)CC)c(-c3ccc(OCC[18F])cc3)nn12; target = Translocator protein (Tspo, Rattus norvegicus, UniProt P16257); assay = Logan plot analysis; test system = rat C6 glioma model, tumor; setting = dose not given, 60 min dynamic PET; measurement = total distribution volume; value = 7.35 ± 1.26 mL/cm3
Compound = CCOC(=O)CN1CCN(CC(=O)OCC)CCN(Cc2cc(-c3nc4ccccc4s3)cc(OC)c2O)CC1; target = copper(II) ion; assay = metal chelation, spectrophotometric titration; test system = aqueous solution; setting = 50 µM, pH 7.4, added: Cu(II) 50 µM; how to read = higher = stronger binding; measurement = pCu; value = 10.6
Compound = CCCCCCCCCCCCCCCC(=O)OCC(CSC[C@H](N)C(=O)N[C@@H](CO)C(=O)N[C@@H](CCCCN)C(=O)N[C@@H](CCCCN)C(=O)N[C@@H](CCCCN)C(=O)N[C@@H](CCCCN)C(=O)NCCCCCC(=O)N[C@@H](CCCCN)C(=O)N[C@@H](CC(C)C)C(=O)N[C@H](C(=O)N[C@@H](Cc1ccccc1)C(=O)N[C@@H](Cc1ccccc1)C(=O)N[C@@H](Cc1ccc2ccccc2c1)C(=O)O)C(C)C)OC(=O)CCCCCCCCCCCCCCC (some centres unmarked); target = Amyloid-beta precursor protein, fibrillar amyloid-beta (APP, Homo sapiens, UniProt P05067); assay = dynamic light scattering; test system = supernatant; setting = compound alone; measurement = hydrodynamic diameter; value = ~66 nm
Compound = C[C@H](NC(=O)[C@H](Cc1ccccc1)NC(=O)[C@H](CO)NC(=O)[C@H](CO)NC(=O)[C@@H](NC(=O)[C@H](CCCNC(=N)N)NC(=O)[C@@H]1CCCN1C(=O)[C@H](CCCNC(=N)N)NC(=O)CN)[C@@H](C)O)C(=O)N[C@@H](CCC(=O)O)C(=O)NCC(=O)O; target = chymotrypsin; assay = substrate; measurement = time to degradation; value = ≤ 0.5 h
Compound = O=C(NCCCc1cccnc1)C(Cc1ccccc1)SCC(Cc1ccccc1)NC(=O)C(F)(F)F (centres unmarked); target = CYP3A4; assay = thermal stability; measurement = ΔTm; value = 5.8 °C
Compound = COc1cc(-c2nc3ccccc3s2)cc(CN2CCN(CC(=O)O)CCN(CC(=O)O)CC2)c1O; target = copper(II) ion; assay = metal chelation, spectrophotometric titration; test system = aqueous solution; setting = 50 µM, pH 7.4, added: Cu(II) 50 µM; how to read = higher = stronger binding; measurement = pCu; value = 12.4
Compound = O=C(O)[C@@H]1C[C@@H](O)CN1C(=O)[C@@H]1CCCN1; target = iron(III); setting = MA2 complex, I 0.15 M NaCl; measurement = ΔH of complex formation; value = 7.65 kJ/mol
Compound = CN(C(=O)c1ccc2ccccc2c1)[C@@H]1NC(=O)[C@H](Cc2ccccc2)NC(=O)[C@H](NC(=O)[C@@H](N)Cc2ccc(Cl)cc2)CSSC[C@@H](C(=O)N[C@@H](Cc2ccc3ccccc3c2)C(N)=O)NC(=O)[C@H](Cc2ccccc2)NC(=O)[C@H](CCCCN)NC1=O; target = trypsin; assay = substrate, RP-HPLC; setting = concentration not given, 6 days, pH 8.1; measurement = hydrolysis; value = 55%
Compound = CC(=O)OC1(C(C)=O)CCC2C3C=C(C)C4=CC(=O)C(O)CC4(C)C3CCC21C (centres unmarked); target = CYP3A4; assay = substrate; test system = recombinant enzyme; setting = 28 µM, 25 min; measurement = formation rate; value = 2.6 ± 0.04 pmol/min/pmol P450
Compound = CN(O)C(=O)CCC(=O)NCCCN(CCCCN(CCCNC(=O)CCC(=O)N(C)O)C(=O)CCC(=O)N(C)O)C(=O)CCC(=O)N(C)O.[89Zr]; target = TF (Homo sapiens, UniProt P02787); assay = transchelation; setting = concentration not given, 7 days, 37 °C, added: 10 equiv apo-transferrin; measurement = transferrin binding; value = 13%
Compound = CC(C)(C)OC(=O)NC(CSC(Cc1ccccc1)C(=O)NCCCc1cccnc1)CC1c2ccccc2-c2ccccc21 (mixture of isomers); target = CYP3A4; setting = 16 µM, 2 h, added: 10 mM H2O2; how to read = relative to: ligand-free enzyme; measurement = heme destroyed; value = 35%
Compound = CC(=O)N(c1ccccc1)c1nc(COC(=O)[C@H]2CC(=O)N(c3cccc4ccccc34)C2)cs1; target = CACNA1C; assay = calcium signal, fluorescence; measurement = IC50; value = > 30 µM
Compound = COc1cc(-c2nc3ccccc3s2)cc(CN2CCN(CC(=O)OC(C)C)CCN(CC(=O)OC(C)C)CC2)c1O; target = copper(II) ion; assay = metal chelation, spectrophotometric titration; test system = aqueous solution; setting = 50 µM, pH 7.4, added: Cu(II) 50 µM; how to read = higher = stronger binding; measurement = pCu; value = 11.1
Compound = O=c1c(/C=N/NC(=S)N/N=C/c2ccccn2)coc2ccccc12; target = Zn2+ complex; assay = potentiometric titration; setting = 25 °C; measurement = log stability constant; value = 18.4
Compound = O=C(CCC(=O)OCCNC(=O)[C@@H](Cc1ccccc1)NC(=O)[C@@H](Cc1ccccc1)NC(=O)CCNc1ccc([N+](=O)[O-])c2nonc12)NCCS(=O)(=O)O; target = porcine liver esterase; assay = substrate; setting = 1.0 wt%, 1 min, pH 7.4, added: esterase 1 U/mL; measurement = conversion; value = 2.5%
Compound = CC(C)(C)OC[C@@H](NC(=O)CNC(=O)CN1CCN(CC(=O)OC(C)(C)C)CCN(CC(=O)OC(C)(C)C)CCN(CC(=O)OC(C)(C)C)CC1)C(=O)N[C@H](COC(C)(C)C)C(=O)NCC(=O)NCC(=O)NCC(=O)N[C@@H](Cc1ccccc1)C(=O)O; target = Cathepsin B (CTSB, Homo sapiens, UniProt P07858); assay = substrate, LC/MS; setting = 48 h, pH 5.0, room temperature; measurement = metabolized peptide; value = 78%
Compound = CCOc1c(C(C)(C)O)sc2cnc(Nc3ccc(N4CCC(N5CC6(COC6)C5)CC4)cc3OC)nc12; target = CACNA1C; assay = ion current, inhibitor, patch clamp; setting = 30 µM; measurement = inhibition; value = 45%
Compound = O=C(NCc1cccc(CN2CCCC2=O)c1)NCC(c1ccccc1)c1ccccc1; target = CACNA1C; assay = calcium signal, fluorescence; measurement = IC50; value = > 30 µM
Compound = [64Cu+2].c1cnc(CNCc2ccc(CN3CCCN4CCNCCCN(CC4)CC3)cc2)nc1; target = CXCR4; test system = NOD/SCID mouse, U87 and U87-stb-CXCR4 xenografts, spleen; setting = iv, 60 min, ex vivo; measurement = tissue uptake; value = 12.9 ± 1.18 %ID/g
Compound = NC(=S)N/N=C/c1cc(Cl)ccc1O; target = Zn2+ complex; assay = potentiometric titration; setting = 25 °C; measurement = log stability constant; value = 15.9
Compound = CC(C)C[C@@H]1NC(=O)[C@H](C)NC(=O)[C@H](CC2CCN(C(=N)N)CC2)NC(=O)[C@H](Cc2ccccc2)NC(=O)[C@H](CCCNC(=N)N)NC(=O)[C@H](C)NC(=O)[C@@H]2CCCN2C(=O)[C@@H](N)CSSC[C@@H](C(=O)O)NC(=O)[C@H](Cc2c[nH]c3ccccc23)NC1=O; target = plasmin; assay = substrate; setting = 1 h, added: plasmin 2 nM; measurement = cleavage; value = ≤ 0.12%
Compound = NS(=O)(=O)Nc1ncnc(OCCOc2ncc(Br)cn2)c1-c1ccc(Br)cc1; target = Cytochrome P450 2C6 (Cyp2c6, Rattus norvegicus, UniProt P05178); assay = substrate, refers to: compound formation; test system = rat, male; setting = pH 7.4, mRNA abundance scaled; measurement = contribution to total CLint; value = < 1% and 0.1%
Compound = CC(=O)Nc1ncc(CN2CC[C@H](Oc3cccc([18F])n3)C[C@@H]2C)s1; target = Protein O-GlcNAcase (OGA, Homo sapiens, UniProt O60502); assay = PET; test system = healthy human, striatum and cerebellum; measurement = time to peak uptake; value = 25 min
Compound = [64Cu+2].c1ccc(CNCc2ccc(CN3CCCN4CCNCCCN(CC4)CC3)cc2)nc1; target = CXCR4; test system = NOD/SCID mouse, U87 and U87-stb-CXCR4 xenografts, spleen; setting = iv, 480 min, ex vivo; measurement = tissue uptake; value = 12.2 ± 1.95 %ID/g

A few entries again:
Compound = CC(C)C[C@@H]1NC(=O)[C@H](C)NC(=O)[C@H](CC2CCN(C(=N)N)CC2)NC(=O)[C@H](Cc2ccccc2)NC(=O)[C@H](CCCNC(=N)N)NC(=O)[C@H](C)NC(=O)[C@@H]2CCCN2C(=O)[C@@H](N)CSSC[C@@H](C(=O)O)NC(=O)[C@H](Cc2c[nH]c3ccccc23)NC1=O; target = plasmin; assay = substrate; setting = 1 h, added: plasmin 2 nM; measurement = cleavage; value = ≤ 0.12%
Compound = O=C(NCCCc1cccnc1)C(Cc1ccccc1)SCC(Cc1ccccc1)NC(=O)C(F)(F)F (centres unmarked); target = CYP3A4; assay = thermal stability; measurement = ΔTm; value = 5.8 °C
